Measured values pooled from the literature.
Each line is one published result; not all experiments were run side by side.

Substance = CC[C@H](C)[C@H](NC(=O)[C@H](CCCCN)NC(=O)[C@@H](NC(=O)[C@H](CC(N)=O)NC(=O)[C@H](C)NC(=O)[C@H](CCCNC(=N)N)NC(=O)[C@H](CCCNC(=N)N)NC(=O)[C@H](CC(N)=O)NC(=O)[C@H](CCCNC(=N)N)NC(=O)[C@@H](NC(=O)[C@H](CCCNC(=N)N)NC(=O)[C@@H](NC(=O)[C@H](CO)NC(=O)[C@@H](NC(=O)[C@H](CS)NC(=O)[C@H](CCCCN)NC(=O)[C@@H](N)CCCNC(=N)N)[C@@H](C)CC)C(C)C)[C@@H](C)CC)[C@@H](C)CC)C(=O)N[C@@H](CS)C(=O)N[C@@H](CC(N)=O)C(=O)O; test = LC-MS; test system = PBS; setting = 0.1 mg/mL; endpoint = single disulfide form; value = 98%
Substance = Oc1ccc(C(c2ccc(O)cc2)(C(F)(F)F)C(F)(F)F)cc1; test system = female rat, plasma; setting = oral, 110 mg/kg, single dose; endpoint = bioavailability; value = 1%
Substance = CCOC(=O)[N-]c1cn(N2CCOCC2)n[o+]1; test = cytochrome c release, ELISA; test system = BALB/cByJ female mouse liver mitochondria; setting = 30 min; how to read = baseline: alamethicin maximal release; endpoint = EC20; value = > 400 µM
Substance = Ac-CGWWLALALALALALALALALWWA-NH2 (N-acetyl, C-amide); test = circular dichroism; test system = water/TFE, extrapolated to water; endpoint = folded core length; value = 7 residues
Substance = COc1cccc2c1C(=O)c1c(O)c3c(c(O)c1C2=O)C[C@@](O)(C(=O)CO)C[C@@H]3O[C@H]1C[C@H](N)[C@H](O)[C@H](C)O1; test = mitochondrial swelling; test system = BALB/cByJ female mouse liver mitochondria; setting = 30 min, added: succinate + rotenone; how to read = baseline: CaCl2 maximal swelling; endpoint = EC20; value = 85 µM
Substance = O=C(Cc1cccc(OC(F)(F)F)c1)Nc1ccc(CCCCc2nnc(NC(=O)Cc3ccccn3)s2)nn1; test system = human patients, plasma; setting = oral, 400 mg three times daily fasted, cycle 1 day 15 steady state; endpoint = AUC(0-8h); value = 3.85 µg·h/mL
Substance = COc1ccc(-c2coc3cc(O)ccc3c2=O)cc1O; test system = extracted rat plasma, autosampler; setting = 37.5 ng/mL, 24 h, 4 °C, post-preparative stability, middle QC; endpoint = accuracy; value = 104 % nominal
Substance = O=C(O)CCCCCCC(=O)O; test system = human hemodialysis patients, plasma ultrafiltrate; setting = pre-treatment; how to read = baseline: hemodialysis over normal subjects; endpoint = free concentration ratio; value = 30
Substance = CC(C)C[C@H](NC(=O)[C@H](CCc1ccccc1)NC(=O)CN1CCOCC1)C(=O)N[C@@H](Cc1ccccc1)C(=O)N[C@@H](CC(C)C)C(=O)[C@@]1(C)CO1; test = LC-MS; test system = human, plasma; setting = intravenous push, 15 mg/m^2; endpoint = Vss; value = 942 L
Substance = Cc1cn(-c2cc(NC(=O)c3ccc(C)c(Nc4nccc(-c5cccnc5)n4)c3)cc(C(F)(F)F)c2)cn1; test = cytochrome c release, ELISA; test system = BALB/cByJ female mouse liver mitochondria; setting = 30 min; how to read = baseline: alamethicin maximal release; endpoint = EC20; value = > 400 µM
Substance = CC1=C(COc2ccc(C#N)cc2)C(=O)c2ccccc2C1=O; test = cyclic voltammetry; test system = DMSO; setting = first wave, vs Ag/AgCl; endpoint = cathodic peak potential; value = -0.62 V
Substance = O=C(c1cccnc1-c1ccncc1)N1CCC(O)(Cc2ccccc2)CC1; test system = healthy human, plasma; setting = oral, 400 mg once daily, day 1, arithmetic mean; endpoint = AUCinf; value = 2.52 µg·h/mL
Substance = Cn1c(-c2ccc(C(N)=O)cc2F)nnc1C(C)(C)Oc1c(F)cc(Cl)cc1F; test system = young non-Japanese humans, plasma; setting = oral, 2 mg once daily, last day of 14 days; endpoint = median AUC(0-tau); value = 0.219 µg·h/mL
Substance = CNS(=O)(=O)Cc1ccc2[nH]cc(CCN(C)C)c2c1; test = in situ brain perfusion; test system = rat; setting = no efflux inhibition; endpoint = log intrinsic permeability; value = -5.06
Substance = CC[C@H](C)[C@H](NC(=O)[C@H](Cc1ccccc1)NC(=O)[C@H](CCC(=O)O)NC(=O)[C@H](CCCCNC(=O)COCCOCCNC(=O)COCCOCCNC(=O)CC[C@H](NC(=O)CCCCCCCCCCCCCCCCC(=O)O)C(=O)O)NC(=O)[C@H](C)NC(=O)[C@H](C)NC(=O)[C@H](CCC(N)=O)NC(=O)CNC(=O)[C@H](CCC(=O)O)NC(=O)[C@H](CC(C)C)NC(=O)[C@H](Cc1ccc(O)cc1)NC(=O)[C@H](CO)NC(=O)[C@H](CO)NC(=O)[C@@H](NC(=O)[C@H](CC(=O)O)NC(=O)[C@H](CO)NC(=O)[C@@H](NC(=O)[C@H](Cc1ccccc1)NC(=O)[C@@H](NC(=O)CNC(=O)[C@H](CCC(=O)O)NC(=O)C(C)(C)NC(=O)[C@@H](N)Cc1cnc[nH]1)[C@@H](C)O)[C@@H](C)O)C(C)C)C(=O)N[C@@H](C)C(=O)N[C@@H](Cc1c[nH]c2ccccc12)C(=O)N[C@@H](CC(C)C)C(=O)N[C@H](C(=O)N[C@@H](CCCNC(=N)N)C(=O)NCC(=O)N[C@@H](CCCNC(=N)N)C(=O)NCC(=O)O)C(C)C; test system = Caucasian subjects; setting = subcutaneous once weekly, 1.0 mg, geometric mean; how to read = baseline: steady state over single dose; endpoint = dose-corrected accumulation ratio; value = 2.31
Substance = CONC(=N)c1ccc(-c2ccc(-c3ccc(C(=N)NOC)cc3)o2)cc1; test = M1 formation by O-demethylation, substrate; test system = individual human intestinal microsomes; setting = high-Km component; endpoint = intrinsic clearance; value = 10 µL/min/mg

For quick reference, copied from above:
Substance = CC1=C(COc2ccc(C#N)cc2)C(=O)c2ccccc2C1=O; test = cyclic voltammetry; test system = DMSO; setting = first wave, vs Ag/AgCl; endpoint = cathodic peak potential; value = -0.62 V
Substance = CC[C@H](C)[C@H](NC(=O)[C@H](CCCCN)NC(=O)[C@@H](NC(=O)[C@H](CC(N)=O)NC(=O)[C@H](C)NC(=O)[C@H](CCCNC(=N)N)NC(=O)[C@H](CCCNC(=N)N)NC(=O)[C@H](CC(N)=O)NC(=O)[C@H](CCCNC(=N)N)NC(=O)[C@@H](NC(=O)[C@H](CCCNC(=N)N)NC(=O)[C@@H](NC(=O)[C@H](CO)NC(=O)[C@@H](NC(=O)[C@H](CS)NC(=O)[C@H](CCCCN)NC(=O)[C@@H](N)CCCNC(=N)N)[C@@H](C)CC)C(C)C)[C@@H](C)CC)[C@@H](C)CC)C(=O)N[C@@H](CS)C(=O)N[C@@H](CC(N)=O)C(=O)O; test = LC-MS; test system = PBS; setting = 0.1 mg/mL; endpoint = single disulfide form; value = 98%
